Assay results from different studies.
Parts stem from different laboratories: compare values within a part only. Positions count from the first letter of the parent shown.

Block 1
Target: RNA binding protein fox-1 homolog 2, RRM domain, GST-SBP tag (RBFOX2, Homo sapiens, UniProt O43251-10, residues 100-194)
Method: RNA Bind-n-Seq
Form: RNA
Sample: in vitro
Concentration: 365 nM
Setting: natural RNA segment, single round, ends assumed
Relative to: no-protein control
Direction: higher = stronger binding
Constant ends, left off below: GGGAGUUCUACAGUCCGACGAUC … UGGAAUUCUCGGGUGCCAA
Residues (chain): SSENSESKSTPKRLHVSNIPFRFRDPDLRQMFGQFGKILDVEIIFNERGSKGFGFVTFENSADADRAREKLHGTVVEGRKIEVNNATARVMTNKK
Oligonucleotide | RBNS enrichment (R)
CCACACAGUGCGAGUCGGAGUGAGUCCCGCUGGUCCUGCCCAUGCAGGGCACAGAGCUGGCUCACCCUCUGGAAGGACAGGUCAGCAGGACUAACCAGGCAGAAGCCAUU | 0.321
CUGUCAGUGGAUCCGUGCUUUGUCGGCCAGCGUUUCUGCAGUCUUUGUAAAGGCCCCACGAGAGCGGGCCAGGCCGUGUGCCUCAGGCCCUUCUCCCUGGGUGUGCUUAA | 0.267
GCACUCGCUUUAGUGCCUAGUACAGUGCUGAGCACACAGUAGGUGUUUAAUAAAUGCUUGUUAAAUUUUGUGUGGAUUUUUUUGUAAUGUUGAGAUUUUUAAGGGCUUUC | 1.83
CAACUAUGCGGUUACCCUCUGAGGAUAAGUUCCUCAGCCCGGGGUUCUUUUAUAUGCUGUGUCCUUUUGGGGUUUGACCUUACCAAAGCAAAGAAACAAAAAACAAAAAA | 0.451
CAGGAGAAGAAAUAACUAUCUUUUCAUUUGGGAGAGGCUAAAGAUGUUUUCAGCUACUUGCAAAUCUUCCUGGUCGAAAGUUAGUAGGAUAUGCCUGCUCUUUGGCCUGA | 0.314
AGUGGCUUUUUGGCUCAGCAUCCAGAAACACCAAACCAGGCUGGCUAAACAAGUGGCCGCGUGUAAAAACAGACAGCUCUGAGUCAAAUCUGGGCCCUUCCACAAGGGUC | 0.334
UUUCCCUAAACCAGCACCCAUCUGCCUUUUAUUCCCCAAAGAGUUACCUUUCCCAGAUUAGGGGGAUGGUAUGUGGGGAGCAGAUAGCGGAAAUGCUUAGAAAGAUAAGG | 0.287
GUAGUCUUUAUGGUGUGUCUUUAUGACGUAAUAAGGUUCUCACGGGUUCGAUUCCUUUGUGUUUAGAGAGACCAGGUUCAGACAAUGGUAUAUAUUUUUGUUAUCAGGUG | 0.423
GAAUUUCCUGCCACUAACAUACACACAGUACCAGCCUUAAAACAAAAGACUAGGUACUGUAAGCAUACAUUUGUGCGAGCUGGCUUAGGGUUGGUUCCUCAUCCUCCACC | 0.298
AGCCGUUGUGUAAUUAUGAGCUGGGCAGCCCAGGUAUAGUUAGUUUUAGGCUUGUAGGUUUACUUCCUAGUUUCUUUAAACACACCUGAUGGUAAAGAACACAUUGAAAG | 0.609
AGUUAAACUUUAUAAUUCUUUGCAAUUUUUAAGUAUUUUAAACUAAAUAUGCAAGGUUUGUUCUAUAUUAUGAUCACUAUUAAUCUUUUAUCACUCAAUUUUAAAACUAG | 0.846
UAGCCCAAAGGGCUGAGCCUCCUGGCCUGCCUGCCCGCCCACCCUGGGAGUCCCAGUGGUGAGGCUCAGAGAACUGCUAAGGGGAAAGAACAGCUGGAGUUUCUGUUGAU | 0.436

Block 2
Target: Ras GTPase-activating protein-binding protein 1, full length (G3BP1, Homo sapiens, UniProt Q13283)
Sequence of UniProt Q13283 (whole entry, looked up): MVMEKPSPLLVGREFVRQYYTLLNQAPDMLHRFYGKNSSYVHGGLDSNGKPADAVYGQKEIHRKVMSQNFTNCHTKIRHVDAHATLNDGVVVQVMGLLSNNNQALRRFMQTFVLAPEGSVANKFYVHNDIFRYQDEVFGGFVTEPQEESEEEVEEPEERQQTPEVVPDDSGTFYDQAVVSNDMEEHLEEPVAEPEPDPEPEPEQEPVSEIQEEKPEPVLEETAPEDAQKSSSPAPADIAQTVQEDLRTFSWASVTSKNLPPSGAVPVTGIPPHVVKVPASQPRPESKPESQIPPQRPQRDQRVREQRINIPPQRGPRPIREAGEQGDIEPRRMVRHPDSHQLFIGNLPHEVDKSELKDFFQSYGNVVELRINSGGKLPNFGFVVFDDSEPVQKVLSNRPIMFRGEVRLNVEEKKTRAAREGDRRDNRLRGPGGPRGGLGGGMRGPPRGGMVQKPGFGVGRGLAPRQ
Method: RNA Bind-n-Seq
Form: RNA
Sample: in vitro
Concentration: 200 nM
Setting: whole 134-nt RNA, ends assumed
Together with: 150 mM LiCl
Relative to: input library
Direction: higher = stronger binding
All molecules: 7-deaza-guanosine replaces G
Constant ends, left off below: GGGAGUUCUACAGUCCGACGAUC … UGGAAUUCUCGGGUGUCAAGG
Oligonucleotide | log2 enrichment
UCCUGUGCUACACAUCGUAUGUACCGAAUCGGGGAAAAAAAGGGGAGGGGAAAAAGGGGAAAGUAUUAUGUUACGCCGUUCGGAUCUGCA | -0.325
UGGCCCUGGUCGCAUGCGGGGAGGAAGAGGUGGCCUCAUGGAUCGUGGUGGUCCCGGUGGAAUGUUCAGAGGUGGCCGUGGUGGAGACAG | 0.405
AGUCCUGUGCUACACAUCGUAUGUACCGAAUCGGAAAAAAGGAAAAAAGGAAAAAAGGAAAGUAUUAUGUUACGCCGUUCGGAUCUGCAC | -1.15
GCAGGAAGUAAAAACAAAUGGAAAUGCUUCGGAUAGUGGCAGGGGUGGGGGUUGCUAAGGAAAGGGUGGGAUGGGAAAGGGUAAAGAGUU | 0.335
CAAGUCCUGUGCUACACAUCGUAUGUACCGAAUCGGAAAAAGGUUUUUUUGGUGGAAAGUAUUAUGUUACGCCGUUCGGAUCUGCACUUC | -1.56
UCCUGUGCUACACAUCGUAUGUACCGAAUCGGUUUUUUUGGUUUUUUUGGGUUUUUUUGGAAAGUAUUAUGUUACGCCGUUCGGAUCUGC | -0.0446
CACAGACAACACGCACCCACACAGACACAGAGGGUAGGGGUUGGGAUGGGGACAGGGUGCACAGCAGGGCGGGGUAGGACCCCAGCCCCU | -0.678
UCCUCAAGUCCUGUGCUACACAUCGUAUGUACCGAAUCGGAAGGAAGGAAGGAAAGUAUUAUGUUACGCCGUUCGGAUCUGCACUUCCAG | 0.209
GCAGGAAGUAAAAACAAAUGGAAAUGCUUCGGAUAGUGGCAGGGGUGUGGGUUGCUAAGGAAAGGGUGGGAUGGGAGUGGGUAAAGAGUU | 0.242
GUGCUGGCUGGCCACGGUCACCUGUAUUCCCGCAUCCCAGGCCUGCUCAGCCCCCAUCCCCUGCUGCAGCUGAGCUACACGGCCACCGAC | -0.571
UAGUGAAAUUUCUAAUAUAUAUAUUUUUUUCUUUAGGAGAAGAAACGAAUGCAUCAGAUCAACAGAAUGAACCCCAGUUAGGCCUGAAAG | -2.34

Block 3
Target: ABI1, truncated, D143A, DHFR fusion (Arabidopsis thaliana)
Method: DHFR PCA, deep sequencing
Sample: yeast
Setting: methotrexate growth selection, single substitutions
Together with: (+)-ABA 4.8 µM
Relative to: wild-type fitted maximum
Direction: higher = stronger binding
Starting sequence: PYL1, truncated, DHFR fusion (Arabidopsis thaliana); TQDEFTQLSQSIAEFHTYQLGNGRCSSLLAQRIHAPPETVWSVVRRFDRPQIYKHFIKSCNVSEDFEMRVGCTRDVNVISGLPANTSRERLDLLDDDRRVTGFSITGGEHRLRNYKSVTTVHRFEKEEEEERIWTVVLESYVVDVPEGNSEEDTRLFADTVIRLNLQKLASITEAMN; partner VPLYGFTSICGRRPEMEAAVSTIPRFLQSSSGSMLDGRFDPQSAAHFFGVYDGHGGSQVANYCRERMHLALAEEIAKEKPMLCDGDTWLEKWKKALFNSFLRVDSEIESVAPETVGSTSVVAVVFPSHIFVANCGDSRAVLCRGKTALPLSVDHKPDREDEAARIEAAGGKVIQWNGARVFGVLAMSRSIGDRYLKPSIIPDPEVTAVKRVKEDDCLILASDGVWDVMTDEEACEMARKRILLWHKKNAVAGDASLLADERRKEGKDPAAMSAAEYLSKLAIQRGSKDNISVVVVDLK
Change | relative binding score
E67G | 50.5%
I105G | -5.94%
D95I | 4.76%
L28P | 7.41%
S59Y | 32%
S87Q | 22.9%
L82T | -0.0749%
Q167M | 71.9%
T6R | 79.8%
V70I | 70%
T101N | 4.45%

Block 4
Molecule: PhoQ, residues 284 288 289 292 302 303 AQGLTV
Method: Sort-seq
Measured: YFP reporter
Sample: E. coli
Setting: PhoQ-PhoP variant library
Together with: 10 µM Mg2+
Relative to: high Mg2+ state
Direction: higher = stronger signaling
target | fold induction
PhoP, residues 12 14 15 18 19 VGHWL (Escherichia coli, UniProt P23836) | 1.02
PhoP, residues 12 14 15 18 19 TPWTL (Escherichia coli, UniProt P23836) | 1.34
PhoP, residues 12 14 15 18 19 NFFVT (Escherichia coli, UniProt P23836) | 1.33
PhoP, residues 12 14 15 18 19 LHHYF (Escherichia coli, UniProt P23836) | 21.3

Excerpt of the above (block 1):
Oligonucleotide | RBNS enrichment (R)
AGUUAAACUUUAUAAUUCUUUGCAAUUUUUAAGUAUUUUAAACUAAAUAUGCAAGGUUUGUUCUAUAUUAUGAUCACUAUUAAUCUUUUAUCACUCAAUUUUAAAACUAG | 0.846
GUAGUCUUUAUGGUGUGUCUUUAUGACGUAAUAAGGUUCUCACGGGUUCGAUUCCUUUGUGUUUAGAGAGACCAGGUUCAGACAAUGGUAUAUAUUUUUGUUAUCAGGUG | 0.423
GCACUCGCUUUAGUGCCUAGUACAGUGCUGAGCACACAGUAGGUGUUUAAUAAAUGCUUGUUAAAUUUUGUGUGGAUUUUUUUGUAAUGUUGAGAUUUUUAAGGGCUUUC | 1.83
CAGGAGAAGAAAUAACUAUCUUUUCAUUUGGGAGAGGCUAAAGAUGUUUUCAGCUACUUGCAAAUCUUCCUGGUCGAAAGUUAGUAGGAUAUGCCUGCUCUUUGGCCUGA | 0.314
GAAUUUCCUGCCACUAACAUACACACAGUACCAGCCUUAAAACAAAAGACUAGGUACUGUAAGCAUACAUUUGUGCGAGCUGGCUUAGGGUUGGUUCCUCAUCCUCCACC | 0.298
AGCCGUUGUGUAAUUAUGAGCUGGGCAGCCCAGGUAUAGUUAGUUUUAGGCUUGUAGGUUUACUUCCUAGUUUCUUUAAACACACCUGAUGGUAAAGAACACAUUGAAAG | 0.609
